Experimental data from different studies.
Each line is one published result; not all experiments were run side by side.
FGFR3 isoform IIIc: FGFR3 isoform IIIc (unknown, UniProt Q61851)
UniProt Q61851, sequence (whole entry, looked up): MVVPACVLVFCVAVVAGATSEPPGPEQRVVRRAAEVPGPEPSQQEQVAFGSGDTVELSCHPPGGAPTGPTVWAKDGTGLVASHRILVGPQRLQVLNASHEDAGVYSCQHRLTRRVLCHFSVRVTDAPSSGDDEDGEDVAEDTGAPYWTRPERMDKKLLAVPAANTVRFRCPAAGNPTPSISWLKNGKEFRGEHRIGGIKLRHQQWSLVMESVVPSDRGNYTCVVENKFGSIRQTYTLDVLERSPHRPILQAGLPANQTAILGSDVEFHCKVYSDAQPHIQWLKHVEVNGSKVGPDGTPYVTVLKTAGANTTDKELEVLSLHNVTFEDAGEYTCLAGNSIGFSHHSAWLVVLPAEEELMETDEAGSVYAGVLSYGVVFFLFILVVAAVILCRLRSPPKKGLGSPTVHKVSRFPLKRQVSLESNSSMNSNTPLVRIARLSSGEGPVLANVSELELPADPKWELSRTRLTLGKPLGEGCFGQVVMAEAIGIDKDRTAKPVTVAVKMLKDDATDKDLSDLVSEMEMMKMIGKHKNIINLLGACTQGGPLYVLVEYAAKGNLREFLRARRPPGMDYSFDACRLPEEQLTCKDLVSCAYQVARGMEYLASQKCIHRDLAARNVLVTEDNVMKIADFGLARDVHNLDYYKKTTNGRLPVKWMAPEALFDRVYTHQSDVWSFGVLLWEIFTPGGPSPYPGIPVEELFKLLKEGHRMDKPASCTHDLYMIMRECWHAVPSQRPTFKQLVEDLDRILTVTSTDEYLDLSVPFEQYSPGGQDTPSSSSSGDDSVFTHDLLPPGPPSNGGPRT
B1: JAK1 35-559 (Homo sapiens, UniProt P23458); sequence looked up; chain GVEVIFYLSDREPLRLGSGEYTAEELCIRAAQACRISPLCHNLFALYDENTKLWYAPNRTITVDDKMSLRLHYRMRFYFTNWHGTNDNEQSVWRHSPKKQKNGYEKKKIPDATPLLDASSLEYLFAQGQYDLVKCLAPIRDPKTEQDGHDIENECLGMAVLAISHYAMMKKMQLPELPKDISYKRYIPETLNKSIRQRNLLTRMRINNVFKDFLKEFNNKTICDSSVSTHDLKVKYLATLETLTKHYGAEIFETSMLLISSENEMNWFHSNDGGNVLYYEVMVTGNLGIQWRHKPNVVSVEKEKNKLKRKKLENKHKKDEEKNKIREEWNNFSYFPEITHIVIKESVVSINKQDNKKMELKLSSHEEALSFVSLVDGYFRLTADAHHYLCTDVAPPLIVHNIQNGCHGPICTEYAINKLRQEGSEEGMYVLRWSCTDFDNILMTVTCFEKSEQVQGAQKQFKNFQIEVQKGRYSLHGSDRSFPSLGDLMSHLKKQILRTDNISFMLKRCCQPKPREISNLLVATK
B2: LILRB4/rat CD4 d3+4 extracellular domain 24-238 (Mus musculus); sequence looked up; chain GHLPKPIIWAEPGSVIAAYTSVITWCQGSWEAQYYHLYKEKSVNPWDTQVPLETRNKAKFNIPSMTTSYAGIYKCYYESAAGFSEHSDAMELVMTGAYENPSLSVYPSSNVTSGVSISFSCSSSIVFGRFILIQEGKHGLSWTLDSQHQANQPSYATFVLDAVTPNHNGTFRCYGYFRNEPQVWSKPSNSLDLMISETKDQSSTPTEDGLETYQK
B3: FGF6 (Homo sapiens, UniProt P10767); chain SPAGTRANNTLLDSRGWGTLLSRSRAGLAGEIAGVNWESGYLVGIKRQRRLYCNVGIGFHLQVLPDGRISGTHEENPYSLLEISTVERGVVSLFGVRSALFVAMNSKGRLYATPSFQEECKFRETLLPNNYNAYESDLYQGTYIALSKYGRVKRGSKVSPIMTVTHFLPRI
UniProt P70618, sequence (whole entry, unmodified, looked up): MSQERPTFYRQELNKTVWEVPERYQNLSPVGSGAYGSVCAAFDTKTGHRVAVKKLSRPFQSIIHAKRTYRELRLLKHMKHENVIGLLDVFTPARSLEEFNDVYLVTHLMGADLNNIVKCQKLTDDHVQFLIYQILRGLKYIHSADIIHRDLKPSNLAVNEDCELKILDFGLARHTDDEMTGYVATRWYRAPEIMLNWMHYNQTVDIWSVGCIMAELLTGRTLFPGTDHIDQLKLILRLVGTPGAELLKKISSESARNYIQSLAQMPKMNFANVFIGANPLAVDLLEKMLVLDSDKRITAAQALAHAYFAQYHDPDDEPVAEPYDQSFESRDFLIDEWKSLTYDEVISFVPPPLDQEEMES
UniProt P30872, sequence (whole entry, unmodified, looked up): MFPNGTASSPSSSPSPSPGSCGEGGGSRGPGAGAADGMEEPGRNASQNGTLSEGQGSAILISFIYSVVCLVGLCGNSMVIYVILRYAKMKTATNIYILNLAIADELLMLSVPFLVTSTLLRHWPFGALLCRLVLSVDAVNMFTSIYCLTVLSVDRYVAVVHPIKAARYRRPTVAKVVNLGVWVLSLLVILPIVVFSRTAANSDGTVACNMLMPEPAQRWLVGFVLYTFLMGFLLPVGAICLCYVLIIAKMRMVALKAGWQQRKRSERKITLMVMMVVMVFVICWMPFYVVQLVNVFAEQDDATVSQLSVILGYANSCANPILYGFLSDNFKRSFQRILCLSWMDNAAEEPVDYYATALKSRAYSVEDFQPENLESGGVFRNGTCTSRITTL
UniProt P28630, sequence (whole entry, looked up): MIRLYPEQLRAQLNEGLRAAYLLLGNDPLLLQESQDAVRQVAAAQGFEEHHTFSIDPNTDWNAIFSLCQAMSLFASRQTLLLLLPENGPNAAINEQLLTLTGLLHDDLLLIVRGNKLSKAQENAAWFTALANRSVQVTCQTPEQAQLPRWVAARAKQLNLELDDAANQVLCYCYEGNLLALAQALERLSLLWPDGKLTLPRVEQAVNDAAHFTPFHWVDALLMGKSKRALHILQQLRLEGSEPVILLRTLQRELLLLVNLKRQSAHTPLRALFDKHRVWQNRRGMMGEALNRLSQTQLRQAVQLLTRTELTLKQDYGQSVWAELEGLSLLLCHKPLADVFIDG
UniProt P56198, sequence (whole entry, unmodified, looked up): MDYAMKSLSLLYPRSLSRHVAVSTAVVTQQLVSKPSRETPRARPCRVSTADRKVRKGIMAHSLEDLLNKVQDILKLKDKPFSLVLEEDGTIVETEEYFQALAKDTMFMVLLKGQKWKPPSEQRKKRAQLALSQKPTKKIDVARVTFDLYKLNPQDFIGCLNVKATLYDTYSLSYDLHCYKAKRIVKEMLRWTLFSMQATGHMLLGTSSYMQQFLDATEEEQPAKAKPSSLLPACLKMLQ
UniProt P0A6A8, sequence (whole entry, looked up): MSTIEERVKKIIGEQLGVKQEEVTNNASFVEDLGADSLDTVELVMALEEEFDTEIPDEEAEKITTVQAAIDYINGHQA
UniProt O54890, sequence (whole entry, looked up): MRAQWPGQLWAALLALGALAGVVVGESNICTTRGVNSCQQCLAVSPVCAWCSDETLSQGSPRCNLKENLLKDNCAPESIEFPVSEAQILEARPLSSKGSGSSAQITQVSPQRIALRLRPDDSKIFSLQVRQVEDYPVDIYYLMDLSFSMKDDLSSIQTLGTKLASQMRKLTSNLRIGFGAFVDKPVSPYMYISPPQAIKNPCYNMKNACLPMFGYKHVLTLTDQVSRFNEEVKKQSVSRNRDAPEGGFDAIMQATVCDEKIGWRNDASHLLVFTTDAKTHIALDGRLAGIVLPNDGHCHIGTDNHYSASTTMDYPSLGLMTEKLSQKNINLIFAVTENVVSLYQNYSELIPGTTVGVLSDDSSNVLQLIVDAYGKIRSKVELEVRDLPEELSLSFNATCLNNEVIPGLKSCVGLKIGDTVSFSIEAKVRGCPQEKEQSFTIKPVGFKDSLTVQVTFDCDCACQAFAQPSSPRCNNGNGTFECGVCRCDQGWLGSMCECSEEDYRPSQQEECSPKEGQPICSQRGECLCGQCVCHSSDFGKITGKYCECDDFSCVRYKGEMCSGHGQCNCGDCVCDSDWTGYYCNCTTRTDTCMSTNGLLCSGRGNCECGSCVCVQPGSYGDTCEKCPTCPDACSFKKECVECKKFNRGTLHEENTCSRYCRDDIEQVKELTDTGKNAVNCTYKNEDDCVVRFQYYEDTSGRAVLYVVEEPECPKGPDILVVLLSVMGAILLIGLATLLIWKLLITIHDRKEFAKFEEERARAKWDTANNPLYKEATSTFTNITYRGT
UniProt Q8CEG8, sequence (whole entry, looked up): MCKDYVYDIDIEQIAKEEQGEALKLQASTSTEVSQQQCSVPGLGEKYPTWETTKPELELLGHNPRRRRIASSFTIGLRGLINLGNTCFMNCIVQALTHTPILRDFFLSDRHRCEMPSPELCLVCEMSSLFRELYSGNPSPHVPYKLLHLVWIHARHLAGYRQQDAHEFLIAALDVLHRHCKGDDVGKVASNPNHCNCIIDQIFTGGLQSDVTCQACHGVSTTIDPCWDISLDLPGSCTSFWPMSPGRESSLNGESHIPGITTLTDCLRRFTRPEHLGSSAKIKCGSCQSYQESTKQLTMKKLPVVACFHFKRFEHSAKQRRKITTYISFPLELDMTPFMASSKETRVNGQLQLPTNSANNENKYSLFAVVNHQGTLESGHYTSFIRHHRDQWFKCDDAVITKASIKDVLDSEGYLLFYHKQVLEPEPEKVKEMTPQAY
UniProt A2AWT3, sequence (whole entry, looked up): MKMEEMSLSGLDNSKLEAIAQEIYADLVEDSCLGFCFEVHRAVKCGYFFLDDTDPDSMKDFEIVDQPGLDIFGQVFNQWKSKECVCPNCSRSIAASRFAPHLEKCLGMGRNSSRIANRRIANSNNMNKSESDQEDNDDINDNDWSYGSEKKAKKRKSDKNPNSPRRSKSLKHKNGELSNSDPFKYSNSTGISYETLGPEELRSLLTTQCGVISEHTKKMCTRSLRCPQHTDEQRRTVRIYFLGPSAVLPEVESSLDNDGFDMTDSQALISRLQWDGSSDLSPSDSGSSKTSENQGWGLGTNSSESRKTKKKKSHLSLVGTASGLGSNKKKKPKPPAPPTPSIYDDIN
UniProt O60656, sequence (whole entry, looked up): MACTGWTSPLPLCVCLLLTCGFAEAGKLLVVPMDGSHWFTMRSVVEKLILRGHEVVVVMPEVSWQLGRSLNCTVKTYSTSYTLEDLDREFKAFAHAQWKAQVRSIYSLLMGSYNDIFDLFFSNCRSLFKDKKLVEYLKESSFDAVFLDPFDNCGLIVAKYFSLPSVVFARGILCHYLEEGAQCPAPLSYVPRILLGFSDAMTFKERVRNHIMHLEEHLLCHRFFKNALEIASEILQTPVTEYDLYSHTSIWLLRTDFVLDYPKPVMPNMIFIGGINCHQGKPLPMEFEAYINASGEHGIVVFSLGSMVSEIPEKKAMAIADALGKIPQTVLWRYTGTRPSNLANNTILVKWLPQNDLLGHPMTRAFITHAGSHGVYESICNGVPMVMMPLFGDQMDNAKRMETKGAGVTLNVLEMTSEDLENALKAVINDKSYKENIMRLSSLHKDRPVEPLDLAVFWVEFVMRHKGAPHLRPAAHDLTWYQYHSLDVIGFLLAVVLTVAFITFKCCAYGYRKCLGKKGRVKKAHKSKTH
UniProt Q5SKM8, sequence (whole entry, looked up): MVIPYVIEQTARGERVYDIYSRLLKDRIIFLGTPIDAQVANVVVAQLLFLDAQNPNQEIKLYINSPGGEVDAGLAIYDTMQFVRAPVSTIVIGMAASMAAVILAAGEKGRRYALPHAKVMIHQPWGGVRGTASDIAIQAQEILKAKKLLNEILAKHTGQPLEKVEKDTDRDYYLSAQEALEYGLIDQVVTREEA

With `F8 A2 subunit T657Y (human)` the decay rate was 0.13 min⁻¹ (F8 A1 and A3C1C2 dimer, factor VIIIa Y1792T; FXa generation activity loss; 1.5 nM, 23 °C; higher = faster decay).
`YANQLKFRKKKLKFCK (SETD1B D-site peptide (Homo sapiens))` has an IC50 of 8 µM (Mapk14 D315S/D316E/E317A, pT180, pY182 (Rattus norvegicus, UniProt P70618); kinase activity, inhibitor, competitive kinase inhibition assay; peptide; with: ATP 1 mM).
`DnaA (Caulobacter crescentus)` gave a KM of 2.9 µM (Lon protease (Caulobacter crescentus); steady-state kinetics; 30 °C).
The IC50 of `TFPI (Homo sapiens, UniProt P10646-1)` is reported as 0.0084 µM (F5 B-domain deleted 811-1490 R709Q/R1545Q (UniProt P12259); prothrombinase inhibition, inhibitor; with: fondaparinux 0.8 u/mL).
`Usp27x (Mus musculus, UniProt Q8CEG8)` gave a relative co-precipitation of 5 fold (Atxn7l3 (Mus musculus, UniProt A2AWT3); co-IP; mouse ES cells; Usp22 KO; relative to: WT cells, higher = more association).
`SUMO1 fragment R66E (Arabidopsis thaliana)`: “SUMO conjugation rate” 50% (SAE2/SAE1a (Arabidopsis thaliana); SUMO conjugation; 42 °C; relative to: native AtSUMO1, higher = faster conjugation).
`B1 (JAK1 35-559)`: “fold reduction in binding” 3 fold (IFNLR1 250-270 W257A (Homo sapiens, UniProt Q8IU57); BLI; relative to: wild type).
For `fabF R127A/K128A (Escherichia coli)`, the condensation rate was 1.75 min⁻¹ (acpP C12-acylated 1-78, C12 acyl on 4'-phosphopantetheine (Escherichia coli, UniProt P0A6A8); holo-AcpP formation, HPLC; 10 µM, with: malonyl-CoA).
The response of `B2` is reported as 250 RU (LAIR1/rat CD4 d3+4 extracellular domain 22-165 (Homo sapiens); SPR; multivalent bead assay).
`holA (Escherichia coli, UniProt P28630)` — result for “concentration for unloading”: 146 nM (dnaN dimer (Escherichia coli); unloading of 32P-β from DNA; 50%, 10 min).
With `Prkcb (Mus musculus, UniProt P68404)` the association increase was 2.5 fold (integrin β3 (Mus musculus, UniProt O54890); co-IP; aortas; diabetic mice; relative to: euglycemic controls, higher = more association).
Under “unwinding rate constant”, `Pfa1 G-patch (Chaetomium thermophilum)` is recorded as 3.9 min⁻¹ (Prp43 C303T/C323V/C441A/C508A/C543S/K170C/E602C (Chaetomium thermophilum, UniProt G0RY84); RNA unwinding, activator).
With `CDC42 (Homo sapiens, UniProt P60953)` the fluorescence increase was 32 fold (WAS fragment F271C, Cys271 4-DMN label; solvatochromic fluorescence; 25 °C, with: GTP-γS; relative to: Cdc42(GDP), higher = more fluorescence).
`PLIN1 del292-319` — result for “lipid exchange rate”: 0.16 µm^3 s⁻¹ (Cidec (Mus musculus, UniProt P56198); FRAP; 3T3-L1 preadipocytes; higher = faster exchange).
`clpX fragment (Thermus thermophilus)`: “half-maximal activation ratio” 2.4 ClpX6/ClpP14 ratio (clpP 1-194 (Thermus thermophilus, UniProt Q5SKM8); peptidase activity, activator; with: bortezomib 10 µM).
`UGT1A9 (Homo sapiens, UniProt O60656)` gave a Vmax of 0.0031 µmol/min/mg (O=c1c(O)c(-c2cccc(O)c2)oc2ccccc12; steady-state kinetics; pH 7.4, 37 °C).
The cell proliferation of `FGF8 (Homo sapiens, UniProt P55075)` is reported as 45% (FGFR3 isoform IIIc; cell proliferation, MTT; BaF3-FGFR3c; 20 nM, 48 h, with: chondroitin sulfate D 4.9 µg/mL; relative to: FGF 1 with heparin, higher = more proliferation).
For `H-ARPCA-NH2 (PTX3 100-104, C-terminal amide (Homo sapiens); C-terminal amide)`, the ID50 was 500 µM (FGF2 18 kD form (Homo sapiens); cell proliferation, antagonist; peptide, GM7373; 3-1000 µM, with: FGF2 0.55 nM).
With `CLSTAADMQGVVTDGMASGLDKDYLKPDD (azu residues 50-77)` the koff was 0.014 s⁻¹ (TP63 DBD 127-323 (Homo sapiens); atomic force spectroscopy; peptide; pH 7.5, NaCl 150 mM).
The cell proliferation of `FGF8b (Homo sapiens)` is reported as 41% (FGFR3 isoform IIIc; cell proliferation, MTT; BaF3-FGFR3c; 20 nM, 48 h, with: chondroitin sulfate D 4.9 µg/mL; relative to: FGF 1 with heparin, higher = more proliferation).
Under “free factor Xa”, `TFPI endogenous, on cells (Homo sapiens, UniProt P10646)` is recorded as 0.098 nM (F10 factor Xa; factor Xa inhibition; HUVEC; 100 µg/mL total protein, initial, α-cyclodextrin).
`MMP2 fragment R368A (Homo sapiens)` gave a hydrolysis rate of 0.178 RFU/s (COL1A1/COL1A2 denatured, gelatin (Homo sapiens); DQ-gelatin fluorescence; 10 nM, 25 °C; higher = faster hydrolysis).
For `lanreotide, D-Trp, cyclic disulfide`, “potency of cAMP inhibition” read 10 fold (SSTR1 M141Q (Homo sapiens, UniProt P30872); cAMP inhibition, FRET Epac sensor; HEK 293T; relative to: wild-type SSTR1, higher = greater potency).
With `B3 (FGF6)` the cell proliferation was 17% (FGFR3 isoform IIIc; cell proliferation, MTT; BaF3-FGFR3c; 20 nM, 48 h, with: chondroitin sulfate B 4.9 µg/mL; relative to: FGF 1 with heparin, higher = more proliferation).
`MEAVKKATATTTWMVPTAQ (L3MBTL3 52-70 N54A (Homo sapiens, UniProt Q96JM7-2); sequence looked up)` has a ΔH of -11.1 kcal/mol (Rbpj 53-474 (Mus musculus, UniProt P31266); ITC; peptide; pH 6.5, 25 °C, NaCl 150 mM).

A few entries again:
`UGT1A9 (Homo sapiens, UniProt O60656)` gave a Vmax of 0.0031 µmol/min/mg (O=c1c(O)c(-c2cccc(O)c2)oc2ccccc12; steady-state kinetics; pH 7.4, 37 °C).
The cell proliferation of `FGF8 (Homo sapiens, UniProt P55075)` is reported as 45% (FGFR3 isoform IIIc; cell proliferation, MTT; BaF3-FGFR3c; 20 nM, 48 h, with: chondroitin sulfate D 4.9 µg/mL; relative to: FGF 1 with heparin, higher = more proliferation).
